Measured values collected from several papers.
Numbers after ± are the reported error.
AMY2: Pancreatic alpha-amylase (AMY2, Sus scrofa, UniProt P00690)
Sequence of UniProt P00690 (whole entry, looked up): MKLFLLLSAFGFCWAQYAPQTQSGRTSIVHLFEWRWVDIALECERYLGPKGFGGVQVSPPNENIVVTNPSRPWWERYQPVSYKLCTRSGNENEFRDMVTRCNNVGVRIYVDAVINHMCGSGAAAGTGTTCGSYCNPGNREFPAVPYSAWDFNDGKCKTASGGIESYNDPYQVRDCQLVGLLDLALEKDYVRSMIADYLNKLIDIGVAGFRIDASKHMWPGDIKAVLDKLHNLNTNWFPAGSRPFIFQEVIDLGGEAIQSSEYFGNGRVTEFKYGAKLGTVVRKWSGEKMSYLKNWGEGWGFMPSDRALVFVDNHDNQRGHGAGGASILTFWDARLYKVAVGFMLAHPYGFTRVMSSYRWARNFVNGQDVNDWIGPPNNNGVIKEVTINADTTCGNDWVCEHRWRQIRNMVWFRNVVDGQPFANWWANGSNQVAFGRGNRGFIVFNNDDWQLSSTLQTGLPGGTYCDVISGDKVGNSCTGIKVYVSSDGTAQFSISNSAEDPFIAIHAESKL
HTR1B: 5-hydroxytryptamine receptor 1B (HTR1B, Homo sapiens, UniProt P28222)
Sequence of UniProt P28222 (whole entry, looked up): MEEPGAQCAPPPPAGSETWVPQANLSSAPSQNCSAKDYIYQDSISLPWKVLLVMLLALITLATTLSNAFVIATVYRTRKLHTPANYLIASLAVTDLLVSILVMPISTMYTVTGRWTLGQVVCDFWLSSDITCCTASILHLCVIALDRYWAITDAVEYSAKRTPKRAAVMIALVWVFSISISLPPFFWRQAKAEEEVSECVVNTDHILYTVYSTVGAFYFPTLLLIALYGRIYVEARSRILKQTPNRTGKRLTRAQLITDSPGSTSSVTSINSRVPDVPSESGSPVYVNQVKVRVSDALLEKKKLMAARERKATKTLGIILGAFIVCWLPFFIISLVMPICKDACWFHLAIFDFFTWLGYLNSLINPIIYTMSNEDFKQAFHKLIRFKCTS
SRPK3: SRSF protein kinase 3 (SRPK3, Homo sapiens, UniProt Q9UPE1)
Sequence of UniProt Q9UPE1 (whole entry, looked up): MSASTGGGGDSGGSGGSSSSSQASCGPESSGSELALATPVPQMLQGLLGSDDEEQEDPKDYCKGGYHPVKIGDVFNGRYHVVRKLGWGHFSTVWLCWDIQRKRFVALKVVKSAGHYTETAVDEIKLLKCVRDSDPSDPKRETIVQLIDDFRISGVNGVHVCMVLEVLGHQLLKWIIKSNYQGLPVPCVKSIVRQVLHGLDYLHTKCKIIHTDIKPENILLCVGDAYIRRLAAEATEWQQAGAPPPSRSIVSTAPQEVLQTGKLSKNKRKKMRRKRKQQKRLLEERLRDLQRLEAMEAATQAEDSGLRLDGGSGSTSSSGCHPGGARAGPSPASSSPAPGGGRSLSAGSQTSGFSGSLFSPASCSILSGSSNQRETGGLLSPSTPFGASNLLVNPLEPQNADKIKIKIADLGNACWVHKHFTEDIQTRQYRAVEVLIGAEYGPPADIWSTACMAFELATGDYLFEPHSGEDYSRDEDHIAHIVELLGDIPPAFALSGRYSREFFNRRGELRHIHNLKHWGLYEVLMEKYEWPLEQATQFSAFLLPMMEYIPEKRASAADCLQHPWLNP
SIRT3: NAD-dependent protein deacetylase sirtuin-3, mitochondrial (SIRT3, Homo sapiens, UniProt Q9NTG7)
Sequence of UniProt Q9NTG7 (whole entry, looked up): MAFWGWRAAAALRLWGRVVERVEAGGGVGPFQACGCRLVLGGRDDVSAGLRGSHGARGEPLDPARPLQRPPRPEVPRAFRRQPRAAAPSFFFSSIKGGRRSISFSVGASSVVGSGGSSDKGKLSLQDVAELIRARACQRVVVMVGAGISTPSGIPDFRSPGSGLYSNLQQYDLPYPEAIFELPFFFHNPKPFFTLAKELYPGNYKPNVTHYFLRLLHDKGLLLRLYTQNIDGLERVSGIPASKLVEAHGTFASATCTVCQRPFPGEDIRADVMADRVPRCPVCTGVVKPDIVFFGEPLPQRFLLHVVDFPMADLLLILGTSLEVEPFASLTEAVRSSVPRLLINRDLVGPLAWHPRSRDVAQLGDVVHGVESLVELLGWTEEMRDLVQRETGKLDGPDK
Sequence of UniProt O15151 (whole entry, looked up): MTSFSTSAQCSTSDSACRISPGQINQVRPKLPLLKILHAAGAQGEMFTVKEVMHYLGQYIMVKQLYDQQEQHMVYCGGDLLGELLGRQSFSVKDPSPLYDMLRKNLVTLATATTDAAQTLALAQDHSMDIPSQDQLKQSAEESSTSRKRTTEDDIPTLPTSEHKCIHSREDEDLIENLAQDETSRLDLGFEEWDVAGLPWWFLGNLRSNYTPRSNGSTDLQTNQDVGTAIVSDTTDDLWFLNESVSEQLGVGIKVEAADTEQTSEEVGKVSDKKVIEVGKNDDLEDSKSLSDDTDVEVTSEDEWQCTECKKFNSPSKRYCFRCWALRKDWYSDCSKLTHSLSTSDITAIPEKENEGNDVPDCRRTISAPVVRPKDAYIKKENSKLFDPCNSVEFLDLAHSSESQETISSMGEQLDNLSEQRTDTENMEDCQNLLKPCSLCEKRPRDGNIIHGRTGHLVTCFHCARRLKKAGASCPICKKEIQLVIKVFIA
Sequence of UniProt Q96EB6 (whole entry, looked up): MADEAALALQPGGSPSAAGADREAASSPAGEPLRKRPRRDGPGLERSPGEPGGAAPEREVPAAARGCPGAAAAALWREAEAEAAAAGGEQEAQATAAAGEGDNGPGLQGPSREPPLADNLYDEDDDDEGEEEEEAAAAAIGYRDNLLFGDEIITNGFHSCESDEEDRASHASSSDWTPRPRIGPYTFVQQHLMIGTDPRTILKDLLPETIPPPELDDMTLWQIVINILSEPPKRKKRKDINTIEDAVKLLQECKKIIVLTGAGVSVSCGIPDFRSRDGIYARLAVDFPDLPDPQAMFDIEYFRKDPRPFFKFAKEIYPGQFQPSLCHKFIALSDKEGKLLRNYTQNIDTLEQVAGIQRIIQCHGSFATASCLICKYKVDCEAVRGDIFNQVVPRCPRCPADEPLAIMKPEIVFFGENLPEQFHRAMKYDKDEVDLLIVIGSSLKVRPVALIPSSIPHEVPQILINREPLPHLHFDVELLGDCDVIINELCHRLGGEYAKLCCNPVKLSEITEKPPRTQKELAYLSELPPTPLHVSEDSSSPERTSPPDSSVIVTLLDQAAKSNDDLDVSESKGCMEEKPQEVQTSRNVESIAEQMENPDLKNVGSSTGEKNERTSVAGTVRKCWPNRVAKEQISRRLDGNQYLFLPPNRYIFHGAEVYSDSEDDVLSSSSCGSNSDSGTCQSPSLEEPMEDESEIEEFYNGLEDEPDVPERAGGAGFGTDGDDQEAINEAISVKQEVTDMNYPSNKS
Sequence of UniProt O60760 (whole entry, looked up): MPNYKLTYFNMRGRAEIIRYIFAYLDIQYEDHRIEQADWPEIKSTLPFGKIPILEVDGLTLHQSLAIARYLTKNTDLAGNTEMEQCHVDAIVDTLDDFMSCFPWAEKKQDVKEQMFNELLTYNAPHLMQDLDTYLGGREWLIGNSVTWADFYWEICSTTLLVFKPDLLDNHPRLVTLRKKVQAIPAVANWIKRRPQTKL
Sequence of UniProt P23975 (whole entry, looked up): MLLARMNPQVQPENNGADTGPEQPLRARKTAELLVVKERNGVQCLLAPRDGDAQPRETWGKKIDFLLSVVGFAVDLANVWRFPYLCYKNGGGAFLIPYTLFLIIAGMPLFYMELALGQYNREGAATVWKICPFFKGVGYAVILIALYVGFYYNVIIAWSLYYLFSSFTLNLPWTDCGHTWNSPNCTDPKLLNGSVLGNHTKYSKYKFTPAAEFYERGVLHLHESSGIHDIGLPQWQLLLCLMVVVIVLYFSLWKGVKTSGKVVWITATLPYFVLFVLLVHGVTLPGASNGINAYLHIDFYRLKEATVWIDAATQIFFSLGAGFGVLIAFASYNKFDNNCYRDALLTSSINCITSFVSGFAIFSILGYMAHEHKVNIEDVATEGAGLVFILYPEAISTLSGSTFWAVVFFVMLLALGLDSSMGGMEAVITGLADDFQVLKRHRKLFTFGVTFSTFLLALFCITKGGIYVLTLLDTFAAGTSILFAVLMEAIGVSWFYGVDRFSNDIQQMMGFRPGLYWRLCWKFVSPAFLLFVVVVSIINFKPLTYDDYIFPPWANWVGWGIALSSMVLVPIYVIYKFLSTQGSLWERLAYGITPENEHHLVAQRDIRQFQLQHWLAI
Sequence of UniProt P28566 (whole entry, looked up): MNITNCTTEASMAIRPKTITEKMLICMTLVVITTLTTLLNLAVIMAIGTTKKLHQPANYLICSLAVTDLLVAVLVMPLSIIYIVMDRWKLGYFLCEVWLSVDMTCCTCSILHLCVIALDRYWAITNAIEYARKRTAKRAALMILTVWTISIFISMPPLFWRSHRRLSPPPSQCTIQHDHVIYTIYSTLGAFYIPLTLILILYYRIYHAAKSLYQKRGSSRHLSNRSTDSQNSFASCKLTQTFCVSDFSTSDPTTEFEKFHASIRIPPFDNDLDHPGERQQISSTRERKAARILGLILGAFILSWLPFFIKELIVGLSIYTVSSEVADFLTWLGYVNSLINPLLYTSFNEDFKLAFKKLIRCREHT
Sequence of UniProt P05771 (whole entry, looked up): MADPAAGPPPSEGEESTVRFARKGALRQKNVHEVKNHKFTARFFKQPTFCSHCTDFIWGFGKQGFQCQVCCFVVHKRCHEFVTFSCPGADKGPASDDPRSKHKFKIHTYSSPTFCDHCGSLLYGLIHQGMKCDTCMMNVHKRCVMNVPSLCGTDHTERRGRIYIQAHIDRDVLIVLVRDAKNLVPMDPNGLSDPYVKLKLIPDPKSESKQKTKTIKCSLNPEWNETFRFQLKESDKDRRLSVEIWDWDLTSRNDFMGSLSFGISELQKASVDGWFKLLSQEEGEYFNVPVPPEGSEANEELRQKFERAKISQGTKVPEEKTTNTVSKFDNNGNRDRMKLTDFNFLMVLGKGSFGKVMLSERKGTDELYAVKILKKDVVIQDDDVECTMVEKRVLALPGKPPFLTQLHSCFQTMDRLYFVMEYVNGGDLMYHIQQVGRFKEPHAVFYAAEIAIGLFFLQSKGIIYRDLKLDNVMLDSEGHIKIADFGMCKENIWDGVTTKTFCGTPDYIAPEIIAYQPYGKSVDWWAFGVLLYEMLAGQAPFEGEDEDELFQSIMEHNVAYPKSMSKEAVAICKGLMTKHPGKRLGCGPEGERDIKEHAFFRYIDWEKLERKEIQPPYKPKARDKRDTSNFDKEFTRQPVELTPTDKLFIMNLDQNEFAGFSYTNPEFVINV

C/C=C/C(=O)Nc1ccc2nc(NCCCCCN(C)C)nc(NCCCCCCN(C)C)c2c1 — inhibition (SETDB1 (Homo sapiens, UniProt Q15047); enzyme activity, inhibitor, radiometric; 50 µM): 15%
O=c1cc(-c2ccccc2)oc2c(Br)c(O)c(Br)c(O)c12 — inhibition (AMY2; enzyme activity, inhibitor; 50 µM, added: CNP-G3 substrate): 11.7 ± 3.47%
Cc1ccc(CNC(=O)[C@H](CCc2ccccc2)NC(=O)[C@H](CC(=O)NCC(C)(C)C)NC(=O)CCc2cccc(F)c2)cc1 — inhibition (Prothrombin (F2, Homo sapiens, UniProt P00734); enzyme activity, inhibitor; 100 µM): 13%
COc1ccc(C2CC(=O)c3c(O)c(Br)c(O)c(Br)c3O2)cc1O (centres unmarked) — inhibition (AMY2; enzyme activity, inhibitor; 50 µM, 30 min): 40%
CN(C)C/C=C/C(=O)Nc1ccc2nc(NCCCCCN(C)C)nc(NCCCCCCN(C)C)c2c1 — inhibition (EHMT2 (Homo sapiens, UniProt Q96KQ7); enzyme activity, inhibitor, radiometric; 10 µM): 63%
Brc1ccccc1-c1nnc(CSc2nnnn2-c2ccccc2)o1 — inhibition (SLC6A2 (Homo sapiens, UniProt P23975); ligand displacement, radioligand; 10 µM): 8%
COc1cc2c(cc1OC)[C@@H]1Cc3ccc(OC)c(OC)c3CN1CC2 — inhibition (HPGDS (Homo sapiens, UniProt O60760); enzyme activity, inhibitor, fluorescence polarisation; 100 µM): 42.8%
CC(C)(C)CNC(=O)C[C@H](NC(=O)CCc1ccccc1)C(=O)N[C@@H](Cc1cccnc1)C(=O)NCc1ccccc1Cl — inhibition (chymotrypsin; enzyme activity, inhibitor; 100 µM): 0%
O=C1c2sc(-c3ccc(N4CCC(F)C4)nc3F)nc2CCN1c1cccnc1 (centres unmarked) — inhibition (PCP site; radioligand binding; 1 µM, added: antagonist radioligand): 11%
Cc1ccc(CNC(=O)[C@H](CCc2ccccc2)NC(=O)[C@H](CC(=O)NCC(C)(C)C)NC(=O)c2ccc(OCc3ccccc3)cc2)cc1 — inhibition (trypsin; enzyme activity, inhibitor; 100 µM): 3%
CCCCCCCCCCCCNC(=S)NCCCC[C@H](NC(=O)OCc1ccccc1)C(=O)N[C@@H](Cc1ccc(O)cc1)C(=O)N[C@@H](CCCNC(=N)N)C(N)=O — inhibition (SIRT1 (Homo sapiens, UniProt Q96EB6); enzyme activity, inhibitor; 1 µM): 53%
C[Si](C)(C)C[C@H](CN)CC(=O)O — inhibition (kainate receptor, rat; binding, radioligand binding; 250 µM, added: [3H]kainic acid): -1%
Cc1cccc(O[C@H]2CCC[C@@H](C(C)CNCc3ccncc3)C2)c1 (relative stereo) — inhibition (Protein kinase C beta type, isoform beta-II (PRKCB, Homo sapiens, UniProt P05771); kinome profiling; 1 µM): 1%
O=C(Nc1cccnc1)c1cccs1 — inhibition (NMNAT1 human; enzyme activity, coupled alcohol dehydrogenase counter-screen; concentration not given, added: 50 µM NMN): no inhibition
CN(C)CCCCCCNc1nc(NCCCCCN(C)C)nc2ccc(NC(=O)CCl)cc12 — inhibition (Histone-lysine N-methyltransferase SETDB1, triple Tudor domain (SETDB1, Homo sapiens, UniProt Q15047); 100 µM): 114%
Cc1ccc(CNC(=O)C(CCc2ccccc2)NC(=O)C(NC(=O)Cc2cccc(Oc3ccccc3)c2)C(C)O)cc1 (centres unmarked) — inhibition (chymotrypsin; enzyme activity, inhibitor; 100 µM): 1%
O=C1c2sc(-c3ccc(N4CCC(CO)CC4)nc3F)nc2CCN1c1cccnc1 — inhibition (HTR1B; ligand displacement, radioligand; 1 µM): 4%
Cc1ccc(CNC(=O)C(CCc2ccccc2)NC(=O)C(NC(=O)c2ccc(OCc3ccc(C(C)(C)C)cc3)cc2)C(C)O)cc1 (centres unmarked) — inhibition (chymotrypsin; enzyme activity, inhibitor; 100 µM): -8%
Cc1ccc(N(O)/N=N/c2ccc(S(=O)(=O)Nc3nccs3)cc2)cc1 — inhibition (AMY2; enzyme activity, inhibitor; 120 µg/mL): 21.1%
N=C(N)NCCCC(NC(=O)C(CC(=O)NO)Cc1ccc2ccccc2c1)C(=O)NC(Cc1c[nH]c2ccccc12)C(=O)NC(CCC(=O)O)C(N)=O (centres unmarked) — inhibition (DPP4 (Homo sapiens, UniProt P27487); 1 µM): -3%
CC(C)NC(=O)[C@H](CCc1ccccc1)NC(=O)[C@H](CC(=O)NCC(C)(C)C)NC(=O)CCc1ccccc1 — inhibition (chymotrypsin; enzyme activity, inhibitor; 100 µM): -10%
c1ccc(OC[C@H]2CN(CCN3CCc4ccccc43)CCO2)nc1 — inhibition (HTR1B; radioligand binding; concentration not given, added: [3H]5-CT): 9.2%
N#Cc1ccc(NC(=O)Nc2ccccc2O)cc1 — inhibition (SRPK3; enzyme activity, inhibitor, FRET; 10 µM): 74.2%
CC(C)C(OC(=O)C(C)(C)C)n1nnnc1CCNC(=S)NCCCC[C@H](NS(=O)(=O)c1cccc(F)c1)C(=O)N[C@@H](Cc1c[nH]c2ccccc12)C(=O)NC1CCC1 (some centres unmarked) — inhibition (SIRT3; deacylase activity; 1 µM, added: NAD+ 500 µM): < 0%
Cc1cc(C)nc(SCC(=O)Nc2ncc(Cc3cccc4ccccc34)s2)n1 — inhibition (SIRT3; enzyme activity, inhibitor; 10 µM): < 5%
COc1ccc(NC(=O)Nc2ccccc2)c(OC)c1 — inhibition (SRPK3; binding, KINOMEscan competitive binding; concentration not given): 58%
CC1Cc2ccccc2N1C(=O)CN1CCN(Cc2ccccc2)CC1 (centres unmarked) — inhibition (HTR1E (Homo sapiens, UniProt P28566); radioligand binding; concentration not given, added: [3H]5-HT): -6.5%
CCCCCCCCCCCCNC(=S)NCCCC[C@H](NC(=O)OCc1ccccc1)C(=O)NC(C)(C)C(=O)N[C@@H](CCCNC(=N)N)C(N)=O — inhibition (SIRT3; enzyme activity, inhibitor; 10 µM): < 5%
CN(Cc1ccc(/C=C/C(=O)NO)cc1)CC12CC3CC(CC(C3)C1)C2 — inhibition (human CGRP receptor; agonist radioligand binding; 0.05 µM): -8%
CC(=O)C12NC(C)(C)CC1(C)C(=O)C1=C2c2c(c3c4n2C(C)(C)CC2=C4C4(CC(C)(C)NC(C)(C4)C2=O)CC3(C)C)C(=O)C(C)(C)N1 (single isomer, unassigned; (+)) — inhibition (Scn9a (Rattus norvegicus, UniProt O08562); ion current, antagonist, whole-cell patch clamp; HEK293T; 10 µM): 2.33 ± 0.06%
CC(=O)N[C@H](C(=O)N[C@@H](CO)C(=O)N[C@@H](Cc1ccccc1)C(=O)N[C@H]1CCCCNC(=N)NCCCN(C)CCCNC(=N)NCCCC[C@@H](C(=O)N2CCC[C@H]2C(N)=O)NC(=O)[C@H](CC(C)C)NC(=O)[C@H](CC(C)C)NC(=O)[C@H](C)NC(=O)[C@H](Cc2c[nH]c3ccccc23)NC(=O)[C@H](Cc2ccc(O)cc2)NC(=O)[C@H](CCC(=O)O)NC1=O)[C@@H](C)O — inhibition (Protein Mdm4 (MDM4, Homo sapiens, UniProt O15151); protein-protein interaction, inhibitor, TR-FRET; 0.1 µM): 96%
Cc1ccc(-c2nn(-c3ccc(S(C)(=O)=O)cc3)cc2/C=N/N=C2/NC(=O)CS2)cc1 — inhibition (EGFR (Homo sapiens, UniProt P00533, L858R); kinase activity, inhibitor; 0.01 µM): 33.3%
